Published values of several laboratories.
Every numbered part comes from another study and shows a few of its results, in no order.

Study 1 — method: protein-binding microarray; form: double-stranded DNA, one strand shown; medium: in vitro; concentration: 250 nM; setting: 60-bp whole probe; with: salmon DNA 0.4 mg/ml; baseline: random background probes; direction: higher = stronger binding; endpoint: log fluorescence; all sequences stand within: GCCTAGCAC … GTCTTGATTCGCTTGACGCTGCTG
Target: Interferon regulatory factor 7, full length, phosphomimetic (IRF7, Homo sapiens, UniProt Q92985, residues 1-503, S101K/S471D/S472D/S475D/S476D/S477D/S483D/S484D/S487D)
UniProt Q92985, sequence (whole entry, unmodified, looked up): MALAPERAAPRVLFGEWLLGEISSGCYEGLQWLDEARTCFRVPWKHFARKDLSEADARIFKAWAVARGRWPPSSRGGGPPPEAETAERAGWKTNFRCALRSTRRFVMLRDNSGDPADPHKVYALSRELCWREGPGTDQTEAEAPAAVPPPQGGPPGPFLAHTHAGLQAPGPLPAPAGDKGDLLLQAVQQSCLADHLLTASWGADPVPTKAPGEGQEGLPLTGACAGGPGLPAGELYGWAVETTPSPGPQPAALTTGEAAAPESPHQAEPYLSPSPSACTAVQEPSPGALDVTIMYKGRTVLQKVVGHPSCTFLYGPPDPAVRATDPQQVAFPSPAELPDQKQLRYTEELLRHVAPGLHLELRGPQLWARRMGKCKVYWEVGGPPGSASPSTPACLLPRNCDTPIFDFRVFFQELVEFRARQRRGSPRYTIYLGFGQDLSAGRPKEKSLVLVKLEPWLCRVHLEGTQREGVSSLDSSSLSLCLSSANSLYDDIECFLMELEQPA
TTAGATATCGGGTATCGTTTAGTGCTA: 1.09 z-score
GACGGACTGCTCCTGCTGACGTGCTAG: -0.975 z-score
GACGGTATCTTTCTCCTGACGTGCTAG: 0.108 z-score
GACGATATCGGGTTTCCAGACGTGCTA: 0.557 z-score
GACGATTCCGGTTTCGGGACGTGCTAG: 4.22 z-score
GACGATTTCACTTTCGAGACGTGCTAG: 1.97 z-score
GACGATATCTGGTATCGAGACGTGCTA: 0.0876 z-score
CATCATTGCCTGTTTTTCCCCGTGCTA: 0.129 z-score
TTAGAACTGGGGTTTCGTTTAGTGCTA: 6.01 z-score
GACGGACTGGACTATTGGGACGTGCTA: -0.874 z-score
GTCGAACTGAGTATCGAGACGTGCTAG: 0.395 z-score
ATGAAAATCTCAATGGGTTAGTGCTAG: -0.158 z-score
TTAGGTATCGGACTTGGTTAGTGCTAG: 0.387 z-score
TCATTTGTCCCTATTTAACTGTGCTAG: 3.85 z-score
GACGGTTTCGACTAGCGGGACGTGCTA: 6.99 z-score
GACGGACTGCCTCTCCTGACGTGCTAG: -0.366 z-score
GATGAATAAAGCGTTGCTGCGTGCTAG: -0.358 z-score
TCAACTCTCTTGTCTGGAACTGTGCTA: 0.195 z-score

Study 2 — method: protein binding microarray; form: double-stranded DNA, one strand shown; medium: in vitro; concentration: not given; baseline: not given; direction: higher = stronger binding; endpoint: E-score
Target: Histone acetyltransferase KAT6A, winged helix 1, GST fusion (KAT6A, Homo sapiens, UniProt Q92794, residues 1-85)
Setting: 8-mer, flanks averaged, mean of 2 arrays, mostly near background
Construct (chain): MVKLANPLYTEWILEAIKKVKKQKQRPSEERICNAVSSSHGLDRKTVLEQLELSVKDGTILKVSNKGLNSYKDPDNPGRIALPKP
GAAAGGCC: 0.206
ATGACGTG: -0.0765
GAGACATA: -0.0469
AGGGCGCA: 0.251
TAATGATA: -0.0151
ACCCTCAG: -0.201
AAACGAAA: -0.0212
CCTCTTAA: -0.0278
GAGACCAC: -0.0946
CCGCACCG: 0.285
GCTTAAAA: -0.0617
GCTTTACA: 0.0624
CGGCTGAG: 0.0698
TCCCCGGA: 0.028
GCGGTGAC: 0.213
AACGTCCG: 0.163

Study 3 — method: RNA Bind-n-Seq; form: RNA; medium: in vitro; concentration: 100 nM; baseline: input RNA pool; direction: higher = stronger binding; endpoint: bound/input enrichment
Target: RING finger protein unkempt homolog, zinc fingers 1-6, SBP tag (UNK, Homo sapiens, UniProt Q9C0B0, residues 30-357)
UniProt Q9C0B0, sequence (30-357, looked up): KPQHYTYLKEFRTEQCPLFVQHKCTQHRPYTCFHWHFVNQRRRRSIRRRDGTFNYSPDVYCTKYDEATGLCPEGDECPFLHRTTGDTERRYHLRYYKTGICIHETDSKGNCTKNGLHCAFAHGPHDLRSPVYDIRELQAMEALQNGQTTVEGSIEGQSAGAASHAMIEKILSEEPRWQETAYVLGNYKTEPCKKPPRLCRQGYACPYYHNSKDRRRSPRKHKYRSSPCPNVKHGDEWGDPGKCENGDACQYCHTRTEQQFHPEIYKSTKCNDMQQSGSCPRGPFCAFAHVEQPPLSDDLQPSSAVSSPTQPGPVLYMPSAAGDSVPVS
Setting: RNA with constant flanks, vertebrate orthologous sites, ends assumed
All sequences stand within: GGGAGUUCUACAGUCCGACGAUC … CAACAGAGGAUUGAGCAUCA
UCACGAUCUCUACUUAAGUAGGUUUUACAUACCGAGUUAAGCCUUCAUUUUACAUAUUUACAGCUUUUCUCCAGAGGAGGUAAAAGAAUCUCAUGCUUAAAGUUACAUGUGGUCUUUGGC: 0.442 ratio
GGUAUAGUUUUCAUUGUGAUAAUUAAAAAUAUCUUACCCAUAGUGACAACUAGUUUGCACUAGCAGAAUCAUUUACUAUUACUUUUAAAAUUAUGUGCUGCUUGUGAUAGCGGAAGUCAA: 0.708 ratio
UCAUUGUACAGGAGAAGUCAUCCUACUUCUAAACUAGCCAAAGUAAUCACCAGUCUGCAGUAAUAGAAUCAUUUGCUAUUACCUUUUAAAUCAUCUGUUUUGUGAGAUAUCUGAAAUGUA: 0.896 ratio
GUUUUUUAAUUUAUUUUUCUUUCCUUUUUUUUUUUCGGGGGUAAAGUUUGCUCUACCAAAUAGUGAUCGUAACAAACUGAUCUGUUAUGGAUGUUGCUAUAGUGACAUGCAAUUAUAUAU: 1.97 ratio
ACAGGAGCAGCAUAGACUAUAUGAGCUUUGGGGAAAUGAGCUUUGCUUUUUAUUUUUGAAUAGGAUACUUUUAUAUGAUGGGUGCUUUGAGUGUGAAUACAGCAGGCUCUUCAUUUGAGA: 1.88 ratio
AAAAUUCAGUAGAAUUACACUAAUACUGAAGUUACCGUUGAAAAGAUAUCCAAGUGUGUGUUGAUAGUUACUAAAAGAAGUAUAGCUGUUAUUGCCUUGUAUUUAUAUCCCUUGUUUCAG: 0.484 ratio
GGUUGAUGUUCUGAAGAAUCACUUAGUAAAAGAAGGUCGGGUAGAUGAAGAAAUUGCACUUAGAAUUAUCAAUGAGGGUGCUGCCAUCCUUCGGAGAGAGAAAACCAUGAUAGAAGUAGA: 1.15 ratio
AGCAACUCAAGGAUUCAGAACUGGGUUUACAAAUGUCCCAAGCAGAUAUGGAACAAACACUCGUGGUCAAUCCCGACCAUAAUAAACAGCAUUAUUUAUUGUACUUAAGGGUAUUGACUU: 0.39 ratio
CAACUCAAUGGUUGAAGGUUCGGAACUCAAAAAGGUUCGUUCCAACUCCAGGAUUUAUCAUCGGUAUUUUUUGCUGGAUGCCGACAUGCAAAGCCUGAGGUGGGAGCCAUCUAAGAAGGA: 0.112 ratio
GUCAUCUGAUUGGAUGAAGACUGUCCCGAGUUAUAACCAAACAAACAGCUCCAUGGACUUCAGAAACUAUAUGAUGAGAGAUGAGAAUCUGGAACCACUGCCCAAAAACUGGGAGAUGGC: 0.33 ratio
UUGCCUACAAUAAUGAAAACCUAUAGAAAUUUUUUUUUUAAUUUUUCAUUUCUCAUUAGGCAUAGUCUUUUUUUCCCCAGGCAGAUCAUUCUGAGUGUGCGAGUGUGUGUGCACAUGUUA: 0.662 ratio

Study 4 — method: aptamer microarray, sandwich; form: DNA with 2'F-ANA; medium: in vitro; concentration: 200 nM; with: Cy3 exosite-II aptamer, 400 nM; direction: higher = stronger binding; endpoint: mean fluorescence intensity; strand: GGTTGGTGTGGTTGG
Target: Prothrombin, mature alpha-thrombin (F2, Homo sapiens, UniProt P00734)
Setting: whole 15-mer aptamer, many near background
2'F-ANA at 3 7 9: 1100 a.u.
2'F-ANA at 2 3 4 6 7 11 12: 703 a.u.
2'F-ANA at 1 3 4 7 8 9 14 15: 79.6 a.u.
2'F-ANA at 1 3 5 6 7 9 10 11 12 14 15: 57.9 a.u.
2'F-ANA at 3 5 8 10 12 13 14: 56.9 a.u.
2'F-ANA at 2 3 4 5 6 7 8 10 11 13 14 15: 48.7 a.u.
2'F-ANA at 1 2 3 5 7 9 10 12 13 14 15: 48 a.u.
2'F-ANA at 1 2 6 10 11 12 14: 52.2 a.u.
2'F-ANA at 3 4 5 11 13 14 15: 56.9 a.u.
2'F-ANA at 1 2 3 4 5 7 8 9 10: 47.4 a.u.
2'F-ANA at 1 2 3 7 8 11 12 13 15: 321 a.u.
2'F-ANA at 3 7 9 10 12 13 14 15: 403 a.u.
2'F-ANA at 1 2 4 5 11 12 14 15: 43.6 a.u.
2'F-ANA at 3 4 5 6 11 13 15: 60.9 a.u.
2'F-ANA at 1 7 10 11 12 13 14 15: 48.7 a.u.
2'F-ANA at 3 4 6 8 9 10 15: 219 a.u.

Study 5 — method: RNA Bind-n-Seq; form: RNA; medium: in vitro; concentration: 365 nM; baseline: no-protein control; direction: higher = stronger binding; endpoint: RBNS enrichment (R)
Target: RNA binding protein fox-1 homolog 2, RRM domain, GST-SBP tag (RBFOX2, Homo sapiens, UniProt O43251-10, residues 100-194)
Setting: natural RNA segment, single round, ends assumed
All sequences stand within: GGGAGUUCUACAGUCCGACGAUC … UGGAAUUCUCGGGUGCCAA
Target sequence (chain): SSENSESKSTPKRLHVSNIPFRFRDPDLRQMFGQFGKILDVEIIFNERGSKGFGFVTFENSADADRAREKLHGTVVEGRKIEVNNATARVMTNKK
CCUGGUGAGUUAUCAGCCAGUUAAACUUGUAAGCCAGUUUUGUUUAUAAUAAAGAUAUAAGUGGAUUUUAAGGUUCCAUUUUUUUAAGGUUACCCUUGUUUUUCAAAGGU: 0.883
CUGGACGACCUAAGAGACGGACUGGAAAUGAAGUGGAAUUCAGAAGAAAAUCUCAGUUUUGAUGAUUACGUUGCUUUUUUGUCCAGUAGUUUGGUUUAUAUACAUAAAUA: 0.907
ACUCCCACCUGUACAUACAUUGUAUAGGCCACCUGUACAUAUCCCAGAGAACAAUCACUAUUCUUAAGCACUUUGAAGAUAUUUCUAUGUAAAUUAUUGUAAACUUUUUC: 0.375
CAGACAGACUUGAGUCUGUAAAGACAAGCAAAUACACUGACAGAAGUUUACCAUAGUUUCUAAAAUGUAAAAAAGAAAACCCCCAAAAGACUCAAGAAAAUUAGACCACA: 0.41
AAUAGGAGUUACCCAUCAGGUUUCUCUUGGGAUUUUGUAAAUGGAGAGGACAGUUCUUAGUCCAAUAAAAAUAUGCAGAUUGUAUGUAAUGAAAUUUUGUAAGCACAGGU: 1.31
CAGGGAAGGAUGACAAAAUGGAAAUUUAAAUGACAUCCUAGAGGUAGAGAAACCGUGGAGAUCGCUUUUCUCAGACUCACCAACUUUUAAUGGGAUUUCAUGGGGUUUGG: 0.62
UUAUGGGCCUUGGGAGUACUUCUCCCCUGCCCUGCCCCACUGUCCCCUUCCUGACAACUUGAGCCAGUAAGCCAUGCAGGGUGUGGUGCCUCCUAGAGAAAACACUGCCU: 0.28
CUCAGGAAAAGGAAGUCAUUUCGUGUUUGUUUCCCACCAAAGAAGAAUGAAUCCAGGGUUUUUCUACUGUUCGUCUGUCCAGGGGUCCCUGAGAUCUGGGCUCCCUUACA: 0.507
AGGACCACUUGAGUGGGCAGCCAAGCCCAGGCUCGCAGUAUCAAUAAAGCAGUUCUCUGAGGAAUGAUCCUGGGCUCUUGUCAGGCCACCUUGUGCAGCCCCCUCAUCAC: 0.454
UUGCAUCAGGCUUUGCAGAACAAAUGUGAUUCACUUAAACGUUCACACACAGCAACACUGAAAUCCUACAGACCAAACAAACCCACUUGUCAGCAGGAGCCGUGGUCCAG: 0.334
CCAUCCAUUCAUCGCCAUGUGUCCGCAAGACUGUCUCCAUGACCCUGAAAAAGGACUCUCGAGAUGAAAUCCUUUAUUCAAAUGGGACAGCAAGAAGGAAAAGCCAAUGU: 0.467
AGGUUGUAAUGCAGUGGCGCAAUCUCAGCUCACUGCAACCUCUCUCUCCCGGGUUCAAGUGAUUCUCCUGCCUCAGCCUCCCAAGUAGCUGGGAUUACAGGCACCCACCA: 0.338

For quick reference, copied from above (study 4):
2'F-ANA at 1 3 4 7 8 9 14 15: 79.6 a.u.
2'F-ANA at 1 2 3 5 7 9 10 12 13 14 15: 48 a.u.
2'F-ANA at 2 3 4 5 6 7 8 10 11 13 14 15: 48.7 a.u.
2'F-ANA at 1 2 3 4 5 7 8 9 10: 47.4 a.u.
2'F-ANA at 3 7 9: 1100 a.u.
2'F-ANA at 3 7 9 10 12 13 14 15: 403 a.u.
2'F-ANA at 3 5 8 10 12 13 14: 56.9 a.u.
2'F-ANA at 3 4 6 8 9 10 15: 219 a.u.
